Measured values of several laboratories.
Protocols differ between the studies behind these lines. Values joined by “and” are separate records of one study, mostly repeats; a detail may differ.
Target: Eukaryotic elongation factor 2 kinase (EEF2K, Homo sapiens, UniProt O00418)

Cc1nc2c(F)cc(-c3nc(Nc4ccc(CNC(=O)CCCCCCC(=O)NO)cc4)ncc3F)cc2n1C(C)C — inhibition (enzyme activity, inhibitor; 1 µM): 4%
O=C(Cc1ccc(OCc2ccccc2)cc1)NC1(C(=O)O)CCN(C(=O)c2ccc(-c3cccc(Cl)c3)cc2)CC1 — activity vs control (enzyme activity, inhibitor; 10 µM): 121%
CNC(=O)C[C@H](Cc1ccc(C#N)cc1)NC(=O)c1cc(-c2ccc(CN[C@H](C)c3ccc(C)cc3)o2)ccc1Cl — activity vs control (enzyme activity, inhibitor; 1 µM): 104%
Cc1cccc(-c2ccc3nc(NC(=O)C4CCCO4)nn3c2)c1 (stereo not shown) — remaining activity (enzyme activity, Dundee kinase panel; 10 µM): 107%
CCn1cc(C(=O)O)c(=O)c2c(N)c(F)c(NC3CCCCC3)cc21 — inhibition (kinase activity; 0.1 µM, together with: ATP at Km): 8%
CN1CC[C@@H](COc2cnc(C#N)cc2-c2ccn3nc(NC(=O)C4CC4)cc3c2)C1 — inhibition (enzyme activity, inhibitor; 1 µM): -2%
CN1CCN(Cc2ccc(-c3ccc(CO[C@H]4CCC[C@@H]4NC(=O)c4cc(-c5cnn(C)c5)cnc4N)cc3)cc2)CC1 — inhibition (enzyme activity, inhibitor; 0.1 µM): -21%
O=C(O)CCC(=O)c1cccc(NS(=O)(=O)c2c[nH]c3ncccc23)c1 — remaining activity (kinase activity, radiometric; 10 µM): 106%
O=C=[N][Ru-4]123([n]4c5ccc(O)cc5c5c6c(c7cc(F)c[n+]1c7c54)C(=O)NC6=O)[S+]1CC[S+]2CC[S+]3CC1 (stereo not shown) — remaining activity (enzyme activity; 100 nM, human enzyme, together with: 10 µM ATP; baseline: untreated): 107%
c1ccc2c(Nc3cc(C4CCC4)[nH]n3)nc(Nc3ccc4nc[nH]c4c3)nc2c1 — remaining activity (enzyme activity, inhibitor; 0.25 µM): 99%
Nc1nc(Nc2ccccc2)sc1C(=O)c1ccccc1 — remaining activity (enzyme activity, inhibitor; 10 µM): 84%
CS(=O)(=O)Nc1cccc(-c2csc3cnc(Nc4ccc(N5CCN(CCCCCOc6cccc7c6C(=O)N(C6CCC(=O)NC6=O)C7=O)CC5)cc4)nc23)c1 (stereo not shown) — inhibition (probe labelling, inhibitor, KiNativ chemoproteomics; MOLT-4; 1 µM): -20.9%
C=CC(=O)N1Cc2nc(-c3cc(-c4cc(Cl)cnc4Cl)c(F)cc3F)n(-c3ccncn3)c2C1 — inhibition (cell-free assay, inhibitor; 1 µM): 8.2%
Cc1cccc(-c2ccc3nc(NC(=O)C4CCOCC4)nn3c2)c1 — remaining activity (enzyme activity, Dundee kinase panel; 10 µM): 107%
COc1c(OCCCN2CCOCC2)ccc2c1N=C(NC(=O)c1cnc(N)nc1)N1CCN=C21 — remaining activity (kinase activity, inhibitor; 1 µM; baseline: untreated control): 112%
COCC12C(=O)NC3C4(C(OC)CC1O)C1CC5(O)C(OC)C(O)C(OC(C)=O)(C1C5OC(=O)c1ccccc1)C3(O)C(OC)C24 (stereo not shown) — remaining activity (kinase activity, inhibitor, ProQinase kinase profiling; 25 µM; baseline: control): 116% and 111%

For quick reference, copied from above:
Cc1cccc(-c2ccc3nc(NC(=O)C4CCOCC4)nn3c2)c1 — remaining activity (enzyme activity, Dundee kinase panel; 10 µM): 107%
